{"data": "Published values collected from several papers", "note": "Parts stem from different laboratories: compare values within a part only. Changes are numbered by the printed parent chain."}
{"data": "Series 1", "target": "Interferon regulatory factor 7, full length, phosphomimetic (IRF7, Homo sapiens, UniProt Q92985, residues 1-503, S101K/S471D/S472D/S475D/S476D/S477D/S483D/S484D/S487D)", "technique": "protein-binding microarray", "form": "double-stranded DNA, one strand shown", "medium": "in vitro", "tested at": "250 nM", "notes": "60-bp whole probe", "with": "salmon DNA 0.4 mg/ml", "baseline": "random background probes", "direction": "higher = stronger binding", "constant ends, left off below": "GCCTAGCAC … GTCTTGATTCGCTTGACGCTGCTG", "chain of UniProt Q92985 (whole entry, unmodified, looked up)": "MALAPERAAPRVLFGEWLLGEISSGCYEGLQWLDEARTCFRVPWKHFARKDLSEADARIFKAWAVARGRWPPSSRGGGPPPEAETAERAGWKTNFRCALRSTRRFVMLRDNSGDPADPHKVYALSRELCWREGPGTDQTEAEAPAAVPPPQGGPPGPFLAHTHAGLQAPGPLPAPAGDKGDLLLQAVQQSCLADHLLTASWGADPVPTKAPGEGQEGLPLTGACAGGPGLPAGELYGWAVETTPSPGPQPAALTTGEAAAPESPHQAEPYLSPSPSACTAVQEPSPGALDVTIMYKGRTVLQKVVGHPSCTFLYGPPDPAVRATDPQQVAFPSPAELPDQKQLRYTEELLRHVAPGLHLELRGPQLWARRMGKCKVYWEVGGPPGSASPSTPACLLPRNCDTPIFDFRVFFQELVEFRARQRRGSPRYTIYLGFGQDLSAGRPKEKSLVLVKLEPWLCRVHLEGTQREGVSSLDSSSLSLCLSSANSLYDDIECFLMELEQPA"}
{"Sequence": "TCAGAACTGAGACTGGATTAGTGCTAG", "log fluorescence [z-score]": -0.0413}
{"Sequence": "ATTTGTTTCCATTTTCTGAAGTGCTAG", "log fluorescence [z-score]": 5.03}
{"Sequence": "GACGATTTCACACTGGAGACGTGCTAG", "log fluorescence [z-score]": 0.304}
{"Sequence": "TCACTTCTTGAACTCTTACTGTGCTAG", "log fluorescence [z-score]": 0.847}
{"Sequence": "TGGTTTTACTTTCTATCTCTGTGCTAG", "log fluorescence [z-score]": 3.75}
{"Sequence": "ATAGAACTGGGGTTTCGATTAGTGCTA", "log fluorescence [z-score]": 5.96}
{"Sequence": "TTAGGACTGGACTTACGGTTAGTGCTA", "log fluorescence [z-score]": -0.432}
{"Sequence": "GACGATTTCGGTTCCGAGACGTGCTAG", "log fluorescence [z-score]": 2.53}
{"Sequence": "GCCTTTATATACCTGAATATGTGCTAG", "log fluorescence [z-score]": 1.17}
{"Sequence": "TCATGTTTCTCAACCAGACTGTGCTAG", "log fluorescence [z-score]": 1.2}
{"Sequence": "AGTGAATTAGGTTTCACTTTGTGCTAG", "log fluorescence [z-score]": 7.14}
{"Sequence": "TACGGTATCGACTATCGGGACGTGCTA", "log fluorescence [z-score]": 0.0531}
{"Sequence": "GACGATCTCAGTGTCGAGACGTGCTAG", "log fluorescence [z-score]": -0.316}
{"Sequence": "TCACCTTTTGCTTTACTACTGTGCTAG", "log fluorescence [z-score]": 0.974}
{"Sequence": "TTAGGTATCGGGTAGCGGTTAGTGCTA", "log fluorescence [z-score]": 0.599}
{"Sequence": "TTAGATTTCCTACTGCTTTAGTGCTAG", "log fluorescence [z-score]": 0.818}
{"Sequence": "GACGGACTGCTTCTGCTGACGTGCTAG", "log fluorescence [z-score]": -0.744}
{"Sequence": "GACGATATCGGGACTCGAGACGTGCTA", "log fluorescence [z-score]": 0.151}
{"Sequence": "TTAGATCTCAGTTTCCATTAGTGCTAG", "log fluorescence [z-score]": 2.62}
{"data": "Series 2", "target": "CCND2, cyclin fold, Cln2 fusion (human)", "technique": "yeast growth competition, sequencing", "medium": "yeast", "notes": "weak parent motif", "baseline": "not given", "direction": "higher = stronger binding", "parent": "EXO1 docking peptide (human); KPECGRVQRAIFQ"}
{"Variant": "R9A", "normalised enrichment score": 0.0917}
{"Variant": "Q8A", "normalised enrichment score": -0.124}
{"Variant": "K1A", "normalised enrichment score": 0.0361}
{"Variant": "Q13A", "normalised enrichment score": -0.109}
{"Variant": "C4A", "normalised enrichment score": 0.000396}
{"Variant": "E3A", "normalised enrichment score": -0.311}
{"data": "Series 3", "target": "ABI1, truncated, D143A, DHFR fusion (Arabidopsis thaliana)", "technique": "DHFR PCA, deep sequencing", "medium": "yeast", "notes": "methotrexate growth selection, single substitutions", "with": "(+)-ABA 0 µM", "baseline": "wild-type fitted maximum", "direction": "higher = stronger binding", "parent": "PYL1, truncated, DHFR fusion (Arabidopsis thaliana); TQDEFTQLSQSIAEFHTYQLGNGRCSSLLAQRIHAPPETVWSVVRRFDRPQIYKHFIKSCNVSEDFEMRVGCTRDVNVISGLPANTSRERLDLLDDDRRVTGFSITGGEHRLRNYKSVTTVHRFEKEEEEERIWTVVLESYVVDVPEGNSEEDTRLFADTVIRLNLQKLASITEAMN"}
{"Variant": "Q10T", "relative binding score [%]": 19.1}
{"Variant": "I133E", "relative binding score [%]": 50.4}
{"Variant": "H122C", "relative binding score [%]": -3.31}
{"Variant": "F5V", "relative binding score [%]": 20.3}
{"Variant": "S26E", "relative binding score [%]": -1.88}
{"Variant": "S42R", "relative binding score [%]": 10.3}
{"Variant": "F47R", "relative binding score [%]": -3.85}
{"Variant": "S59V", "relative binding score [%]": 1.67}
{"Variant": "L93T", "relative binding score [%]": 1.12}
{"Variant": "I79T", "relative binding score [%]": 18.9}
{"Variant": "H110L", "relative binding score [%]": 15.1}
{"Variant": "G71S", "relative binding score [%]": 3}
{"Variant": "E129C", "relative binding score [%]": 27.3}
{"Variant": "D96K", "relative binding score [%]": 1.75}
{"Variant": "R69W", "relative binding score [%]": -1.35}
{"Variant": "R132Y", "relative binding score [%]": -5.84}
{"Variant": "T86I", "relative binding score [%]": 38.5}
{"Variant": "D3G", "relative binding score [%]": 10.2}
{"data": "Series 4", "target": "RNA binding protein fox-1 homolog 2, RRM domain, GST-SBP tag (RBFOX2, Homo sapiens, UniProt O43251-10, residues 100-194)", "technique": "RNA Bind-n-Seq", "form": "RNA", "medium": "in vitro", "tested at": "365 nM", "notes": "natural RNA segment, single round, ends assumed", "baseline": "no-protein control", "direction": "higher = stronger binding", "Construct (chain)": "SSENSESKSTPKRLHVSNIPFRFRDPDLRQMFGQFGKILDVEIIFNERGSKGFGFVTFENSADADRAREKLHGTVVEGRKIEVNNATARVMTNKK"}
{"Sequence": "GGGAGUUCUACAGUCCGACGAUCGUCCAAAAAGUCACUGAACUCAUACUUCAGUACAUAUACAUGUAUAAGGCACACUGUAGUGCUUAAUAUGUGUAAGGACUUCCUCUUUAAAUUUGGUACCAGUAACUUAGUGGAAUUCUCGGGUGCCAA", "RBNS enrichment (R)": 0.473}
{"Sequence": "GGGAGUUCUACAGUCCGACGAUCAAUCUGAAUCAUCACUUUAGGGUAUCCAUAGCCUAAGAAAUGUGUCAGAAGAUCUAAAGCCUUCCUUCAUAUUCCAGUUCUGUGAGUCCCUAACAGCAGGCAGCAUCCAUUGGAAUUCUCGGGUGCCAA", "RBNS enrichment (R)": 1.11}
{"Sequence": "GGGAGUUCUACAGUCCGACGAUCGUGAGUACCACAGAAACGCCUGAGAGUCACUUACCCGGCCACUGCUUGGAAGGUUUCCCUCCGGGGAAUGCCUCCCUGGAAUGUUCCAGAGACGGAACAUUCUCUAGAGAUGGAAUUCUCGGGUGCCAA", "RBNS enrichment (R)": 0.212}
{"Sequence": "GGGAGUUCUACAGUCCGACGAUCAAUAAAGCCUUUUUACUUGUGGGUGCAAUCGAUUUUUUUUCUUUCUCCUUUCUUUCAAGUGUCGUGAGUCGUCUUGAUUGUAUAUUGGAAAUAACUGUGUAACAAAUCGUUGGAAUUCUCGGGUGCCAA", "RBNS enrichment (R)": 0.289}
{"Sequence": "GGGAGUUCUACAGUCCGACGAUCGAUUUUGUUUUUUAGGAAAUAUACGAAGAGUCAUCAACUUGGAAAGGAAACAAAGAGUGCUUUUGGGCAUCCAACAGUUAAUCACUUAUGUUUUUAGAGCAUGCAAUCUUUGGAAUUCUCGGGUGCCAA", "RBNS enrichment (R)": 9.78}
{"Sequence": "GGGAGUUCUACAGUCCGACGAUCUUUCUGAUCCUUUCCCCUGCCUGGUCUAGCUCCUCUCCAAACAGCCAUGCCCUCCAAAUGCUAGAGACCUGGGCCCUGAACCCUGUAGACAGAUGCCCUCAGAAUUGGGGUGGAAUUCUCGGGUGCCAA", "RBNS enrichment (R)": 0.515}
{"Sequence": "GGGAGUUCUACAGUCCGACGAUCUUUCAAAAACUUUUAUAUUAUGUAUUAUAAGAAGUUACAGUAGUACCAUUUUGAUUAGUCUGAAUGUUUUCAGGCCUUGAAAUAAAUUUUGACUAAGUGAUAUUUUUUCUUGGAAUUCUCGGGUGCCAA", "RBNS enrichment (R)": 0.911}
{"Sequence": "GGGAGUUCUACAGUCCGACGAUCCAUCCUGUGACUGCCAGGCAGAAAGGACAGGGCCCAGGUCAGCCUCAGUCUGCUGUGCCUCCAGACUGCAGAGCUCUCAGAACCCAGAACAGAGACGAAAAGGCUACCUCUGGAAUUCUCGGGUGCCAA", "RBNS enrichment (R)": 0.623}
{"note": "Excerpt of the above (series 3):"}
{"Variant": "Q10T", "relative binding score [%]": 19.1}
{"Variant": "H122C", "relative binding score [%]": -3.31}
{"Variant": "D96K", "relative binding score [%]": 1.75}
{"Variant": "T86I", "relative binding score [%]": 38.5}
